Measurements collected from several papers.
Numbered parts are unrelated; each lists some results of a single study.

Series 1 — technique: aptamer microarray, sandwich; form: DNA with 2'F-ANA; matrix: in vitro; tested at: 200 nM; added: Cy3 exosite-II aptamer, 400 nM; direction: higher = stronger binding; sequence: GGTTGGTGTGGTTGG
Target: Prothrombin, mature alpha-thrombin (F2, Homo sapiens, UniProt P00734)
Setting: whole 15-mer aptamer, many near background
Under “mean fluorescence intensity”, `2'F-ANA at 5 6 7 8 10 12 13` is recorded as 53.5 a.u.
`2'F-ANA at 1 3 4 9 12 14 15`: “mean fluorescence intensity” 83.1 a.u.
For `2'F-ANA at 2 3 6 7 9 11 12 13`, “mean fluorescence intensity” read 728 a.u.
`2'F-ANA at 1 5 6 7 9 10 15` — result for “mean fluorescence intensity”: 48.7 a.u.
For `2'F-ANA at 1 2 3 4 5 6 7 8 12 13`, “mean fluorescence intensity” read 90.6 a.u.

Series 2 — technique: protein binding microarray; form: double-stranded DNA, one strand shown; matrix: in vitro; tested at: not given; relative to: not given; direction: higher = stronger binding
Target: Histone acetyltransferase KAT6A, both winged helices, GST fusion (KAT6A, Homo sapiens, UniProt Q92794, residues 1-181)
Setting: 8-mer, flanks averaged, mean of 2 arrays, mostly near background
Construct (chain): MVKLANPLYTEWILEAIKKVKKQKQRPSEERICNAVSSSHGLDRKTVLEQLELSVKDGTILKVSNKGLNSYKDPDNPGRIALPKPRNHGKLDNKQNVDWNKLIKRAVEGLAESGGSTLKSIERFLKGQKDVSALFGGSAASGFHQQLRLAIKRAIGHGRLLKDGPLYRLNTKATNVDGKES
`AAGGACAG` has an E-score of -0.0466.
`GTACCTCA` gave an E-score of -0.14.
`CGAACTCC` gave an E-score of 0.0395.
For `AGTTACAG`, the E-score was -0.138.
For `CGCCTCCC`, the E-score was 0.0534.
`GCAAAAGC` gave an E-score of 0.0409.

Series 3 — technique: protein-binding microarray; form: double-stranded DNA, one strand shown; matrix: in vitro; tested at: 250 nM; setting: 60-bp whole probe; added: salmon DNA 0.4 mg/ml; relative to: random background probes; direction: higher = stronger binding; all sequences stand within: GCCTAGCAC … GTCTTGATTCGCTTGACGCTGCTG
Target: Interferon regulatory factor 5, full length, phosphomimetic (IRF5, Homo sapiens, UniProt Q13568-2, residues 1-514, K96S/S451D/S453D/S456D/S462D)
The log fluorescence of `TTAAGTTTCGGTTTCGGTTAGTGCTAG` is reported as 12.1 z-score.
With `TCATTTTTGCATTGCTTACTGTGCTAG` the log fluorescence was 0.964 z-score.
`TTAGGACTGCCTCTCCTTTAGTGCTAG` has a log fluorescence of -0.403 z-score.
For `GACGATCTCAGTATCGAGACGTGCTAG`, the log fluorescence was 1.69 z-score.
`GACGGTATCGGTACTGGGGACGTGCTA` has a log fluorescence of 4.49 z-score.
`GACGAACTGAGTTTCGTGACGTGCTAG` gave a log fluorescence of 2.09 z-score.
`GACGGTCTCCTTTGCCTGACGTGCTAG` has a log fluorescence of -0.216 z-score.

Series 4 — technique: Sort-seq; refers to: YFP reporter; matrix: E. coli; setting: PhoQ-PhoP variant library; added: 10 µM Mg2+; relative to: high Mg2+ state; direction: higher = stronger signaling
Molecule: PhoQ, residues 284 288 289 292 302 303 GASLAW
It gave 13.7 for fold induction (PhoP, residues 12 14 15 18 19 LHTVL (Escherichia coli, UniProt P23836)).
PhoP, residues 12 14 15 18 19 NQCAL (Escherichia coli, UniProt P23836) — fold induction: 4.54.
It gave 11.6 for fold induction (PhoP, residues 12 14 15 18 19 TQAML (Escherichia coli, UniProt P23836)).
